Measurements collected from several papers.
Every numbered part comes from another study and shows a few of its results, in no order.

Set 1
Target: RING finger protein unkempt homolog, zinc fingers 1-6, SBP tag (UNK, Homo sapiens, UniProt Q9C0B0, residues 30-357)
Sequence of UniProt Q9C0B0 (30-357, looked up): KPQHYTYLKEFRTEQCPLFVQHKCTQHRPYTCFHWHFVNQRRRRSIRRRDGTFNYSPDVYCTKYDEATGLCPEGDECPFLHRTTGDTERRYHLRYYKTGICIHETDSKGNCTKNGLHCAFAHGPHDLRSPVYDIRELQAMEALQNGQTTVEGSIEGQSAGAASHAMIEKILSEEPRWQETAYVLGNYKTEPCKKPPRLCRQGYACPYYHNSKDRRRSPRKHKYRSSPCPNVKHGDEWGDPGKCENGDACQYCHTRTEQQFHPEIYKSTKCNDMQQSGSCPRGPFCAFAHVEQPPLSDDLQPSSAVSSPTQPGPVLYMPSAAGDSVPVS
Method: RNA Bind-n-Seq
Molecule type: RNA
Matrix: in vitro
Tested at: 100 nM
Notes: RNA with constant flanks, vertebrate orthologous sites, ends assumed
Baseline: input RNA pool
Direction: higher = stronger binding
All sequences stand within: GGGAGUUCUACAGUCCGACGAUC … CAACAGAGGAUUGAGCAUCA
Oligonucleotide | bound/input enrichment [ratio]
GAAAGUCCCCAUUGUCACUGAGAACCACCAAAUCUGACUUUUACAUUUGGUCUCAGAAUUUAAGUUCCUGCCCUGUUGGGUUUUUUUUUUUUUUUAAACAGUUUUCAAAAGUUCUUAAAG | 0.75
AUCCCAGUUUGUAUGCACAUUAUUCACAUUCCUAUCUGUUGUGUUUGCAGAAAUGACAUUUUACCCUUUUCUAAGGGUUACUUUUUGAUUUUCAUAUUAUUUGGUUGCAUGAAGUUGCCC | 0.321
ACGCUUUGAUAUUAAAUUUGACAUAAAAAGCAGCUGAUCGUAAGCACAACUCUCUUCUCCUAGCCAUUUAAAAAGGUAAAAAACAAAAAAGAAAACCUACUAGUCUUGAACAAACUGUCA | 0.882
CACAUCUGGUGAUAUUUGGCCUGGCCUUUCAGCUUAUGAUAAUAGUCCUAGGUCACCUCAUAGUCCUUCACCGAUUGCUACGCCACCUAGUCAGAGUUCAUCUUGCUCUGAUGCGCCCAU | 0.635
AAACCCCGAUUUUAGAUGUGAUAUCUAGGCUCUCAUUCCAGUUUGUUUUUGUCUUUUGUUUAGAUACCAAUCUUUUAAAUUCUUGCAUUUUAGUAAGAAAGCUACCUUUUUAUGGAUGUU | 0.861
AAGGGCUUCCAACAGGCAAAUUCAGGGAGAGAUAGGCUUCAGGGAAUAUAAACUUAAUAGUAGUGAUCAUGAAGUAUAAAUUUGAUAUAAUUGAAUUAUUUGUGAGGGAUGAUGAUAAAA | 1.09
GGUCAUUUAUAGCAAUUAGAGUGGGUUGCCCCUCUACUUCUCCCAAGAAGAAAUCCCAAAUAGAUUCCUUUCAUGUCAGAUUAUACUGUUCUGAUUUUAUUUUCUAUUAUUUUUACAUAU | 0.675
UCACUCUACUCUUGUUUUGGAAAUGGUACAAAAUACCUAAGGUGAAAUCCUGGCCCCAUUGAAGUCAAUGGGAGUUUUGUGGUGGACUUCAAUGGAGCUGGGAUUUCACAACUAGUCAUU | 1.46

Set 2
Target: Sal-like protein 4, full length isoform B (SALL4, Homo sapiens, UniProt Q9UJQ4-2, residues 1-616)
Method: universal PBM
Molecule type: double-stranded DNA, one strand shown
Matrix: in vitro
Tested at: not given
Notes: 8-mer, flanks averaged, mean of replicates
Direction: higher = stronger binding
Construct (chain): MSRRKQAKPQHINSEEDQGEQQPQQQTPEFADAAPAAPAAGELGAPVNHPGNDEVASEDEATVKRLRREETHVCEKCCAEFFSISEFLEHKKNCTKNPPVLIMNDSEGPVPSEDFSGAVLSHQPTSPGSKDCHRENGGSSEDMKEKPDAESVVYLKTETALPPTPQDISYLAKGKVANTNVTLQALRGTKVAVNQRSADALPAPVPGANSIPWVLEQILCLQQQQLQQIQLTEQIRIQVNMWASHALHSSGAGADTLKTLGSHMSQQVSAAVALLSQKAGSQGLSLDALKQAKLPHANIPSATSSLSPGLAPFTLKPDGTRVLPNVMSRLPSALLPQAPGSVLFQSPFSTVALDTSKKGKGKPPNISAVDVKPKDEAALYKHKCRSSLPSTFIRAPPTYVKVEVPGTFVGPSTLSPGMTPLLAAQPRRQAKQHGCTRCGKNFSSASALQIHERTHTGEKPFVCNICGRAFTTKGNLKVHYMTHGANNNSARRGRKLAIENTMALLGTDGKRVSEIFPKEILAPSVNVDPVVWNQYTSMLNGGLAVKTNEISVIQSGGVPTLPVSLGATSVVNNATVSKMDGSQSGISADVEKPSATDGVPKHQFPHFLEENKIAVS
Oligonucleotide | E-score
GGCAAAAA | 0.144
CTGGCCAG | -0.249
ATTTCCAC | 0.195
AAAGGGCT | -0.0143
GACCCACC | -0.266
CTAGTGTC | 0.0249
CCCAAAAG | -0.136
AAGCAAAT | 0.188
CTGACATA | 0.184
ATCACATC | -0.0756
CGGGCCCG | -0.217
CCGGCAGC | -0.324
CATTGCGG | -0.152
AAGAGGCA | -0.0887
ATTCACCA | 0.137
TGCTAACA | 0.0194

Set 3
Target: Centromere-binding protein 1, full length, N-terminal tag (CBF1, Saccharomyces cerevisiae, UniProt P17106, residues 1-351)
Sequence of UniProt P17106 (whole entry, looked up): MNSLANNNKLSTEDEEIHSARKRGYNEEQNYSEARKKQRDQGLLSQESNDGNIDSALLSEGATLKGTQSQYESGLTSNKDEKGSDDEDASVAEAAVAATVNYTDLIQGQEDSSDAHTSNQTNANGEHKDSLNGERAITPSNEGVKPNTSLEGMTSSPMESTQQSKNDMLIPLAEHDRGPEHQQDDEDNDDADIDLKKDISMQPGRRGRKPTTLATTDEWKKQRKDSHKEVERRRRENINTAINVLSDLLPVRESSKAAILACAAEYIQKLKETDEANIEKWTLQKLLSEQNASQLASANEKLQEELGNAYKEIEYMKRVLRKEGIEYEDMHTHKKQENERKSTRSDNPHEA
Method: protein-binding microarray
Molecule type: double-stranded DNA, one strand shown
Matrix: in vitro
Tested at: 0.8 µM
Notes: whole 60-bp probe, no competitor
Direction: higher = stronger binding
All sequences stand within: … GTCTTGATTCGCTTGACGCTGCTG
Oligonucleotide | fluorescence intensity [a.u.]
GAATTAAACAGGCATTACGTGGTGAACTCCAAGTAG | 523
TGTACGAAGCTATTAACACGTGATATAGTAGTTAGG | 10600
CTATCTCGAAAAGAGCACGTCGAAACAGCGGTATTC | 532
GAAAATAAAGCACGTGACTCAATAATACGACGGTAG | 24800
CTACCGGAAATAAAGCACATGTAAAGCATTGAGTTC | 724
GAAATTATCATACATGATGCAAAAATACTTTATTAG | 559
GAAATAATAAAAGAAAACGTGCATATATACATATAG | 841
CTATTCCCTTCTCACGTGTCAATAAAGCATCACTTC | 5710
CCTAACTACTATAAAAGCGTGTCATAGCTTCGTACA | 519
CTAGGCGAAAAAATCCAGCTGATGTTTGTTTCCTTC | 511
CTAGTTTATTGAGGTCATGAGGCTGGAAGAAAATTC | 918
CTAGGAGGATCTAATGGTGACATAGTCCATTTCTTC | 492
GAACAATATCCTAGTCACGGAGCACGAGAGGTATAG | 1230
CTAATGTGTTGATAGCAGGTGACGCGTCTGTAATTC | 1170
GAAGCACTATAGCCGCACGTAAAAATAACTTAATAG | 512
TGTACGAAGCTATAGATCGTGATTATAGTAGTTAGG | 578
CTACTCCACTTCCATCACGCAATCGTTAGTGCTTTC | 566
CTATGCCACTGCCTGCACATGCATTGATACTGCTTC | 642
CTAAAGATGTACAGGTGATTAATTACGTCTTTTTTC | 848
CTATCCTCTCGTAAAATCGTGCGCATGTTAAATTTC | 652

Set 4
Target: Histone acetyltransferase KAT6A, winged helix 1, GST fusion (KAT6A, Homo sapiens, UniProt Q92794, residues 1-85)
Method: protein binding microarray
Molecule type: double-stranded DNA, one strand shown
Matrix: in vitro
Tested at: not given
Notes: 8-mer, flanks averaged, mean of 2 arrays, mostly near background
Baseline: not given
Direction: higher = stronger binding
Residues (chain): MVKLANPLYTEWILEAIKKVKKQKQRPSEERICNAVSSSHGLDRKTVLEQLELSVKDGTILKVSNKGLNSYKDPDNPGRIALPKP
Oligonucleotide | E-score
GAGGTAGC | 0.0161
AATTGACG | 0.0199
AGACTAGG | -0.103
CACCAACG | 0.11
CGGGCGAC | 0.356
ATGGAGAC | -0.189
AGGATTAT | -0.174
CCAGTGGA | -0.266
ACTGCAAC | -0.15
CAGTTTGA | -0.216
AATTCCTC | -0.161
GCTACCGA | 0.233
AGCGCTTA | 0.32
ATCCAGGA | -0.102
AGTGTCGC | 0.125
GTAAAAGA | -0.112

Set 5
Target: Ras GTPase-activating protein-binding protein 1, RRM domain (G3BP1, Homo sapiens, UniProt Q13283)
Sequence of UniProt Q13283 (whole entry, looked up): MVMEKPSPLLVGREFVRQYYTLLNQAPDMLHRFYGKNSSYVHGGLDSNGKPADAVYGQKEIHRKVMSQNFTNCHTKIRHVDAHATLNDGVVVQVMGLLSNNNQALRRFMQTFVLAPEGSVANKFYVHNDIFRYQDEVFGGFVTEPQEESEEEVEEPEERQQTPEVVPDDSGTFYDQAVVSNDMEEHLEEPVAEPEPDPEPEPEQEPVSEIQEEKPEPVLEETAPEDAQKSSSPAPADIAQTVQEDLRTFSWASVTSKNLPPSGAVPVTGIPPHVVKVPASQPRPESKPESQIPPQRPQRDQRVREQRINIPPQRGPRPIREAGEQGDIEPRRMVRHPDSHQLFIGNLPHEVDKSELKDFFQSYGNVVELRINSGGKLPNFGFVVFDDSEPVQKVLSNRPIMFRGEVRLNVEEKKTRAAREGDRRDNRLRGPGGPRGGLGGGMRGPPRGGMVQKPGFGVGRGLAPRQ
Method: RNA Bind-n-Seq
Molecule type: RNA
Matrix: in vitro
Tested at: 1 µM
Notes: whole 134-nt RNA, ends assumed
Added: 150 mM KCl
Baseline: input library
Direction: higher = stronger binding
All sequences stand within: GGGAGUUCUACAGUCCGACGAUC … UGGAAUUCUCGGGUGUCAAGG
Oligonucleotide | log2 enrichment
CAAGUCCUGUGCUACACAUCGUAUGUACCGAAUCGGGAAAAAGGGAAAGGGAGGGAAAGUAUUAUGUUACGCCGUUCGGAUCUGCACUUC | 0.86
UCAAGUCCUGUGCUACACAUCGUAUGUACCGAAUCGGGGUUGGGUUGGGGUUGGGAAAGUAUUAUGUUACGCCGUUCGGAUCUGCACUUC | 0.663
CCUGUGCUACACAUCGUAUGUACCGAAUCGGGGAAAGGGGUUUUUGGGGUUUUUUUGGGGAAAGUAUUAUGUUACGCCGUUCGGAUCUGC | 0.695
CCUGUGCUACACAUCGUAUGUACCGAAUCGGGUUUUUGGGAAAAAAAGGGAAAAAAAGGGAAAGUAUUAUGUUACGCCGUUCGGAUCUGC | -0.178
AAGUCCUGUGCUACACAUCGUAUGUACCGAAUCGGGUGGGUUUUUGGGAAAAAGGGAAAGUAUUAUGUUACGCCGUUCGGAUCUGCACUU | 0.452
ACCAUGCAGAAAGGCAUCUUUGGGAAGUGGGGCAAGGGGGGGAUAGGGAGGGGGGUAACACUUUGGGAACAGGUGGUCCCAGGUCGUUUC | -0.276
UCCUGUGCUACACAUCGUAUGUACCGAAUCGGGGUUUUUUUGGGGAAAGGGGUUUGGGGAAAGUAUUAUGUUACGCCGUUCGGAUCUGCA | 0.663
ACCAUGCAGGUGGGCAUCUUUGGGAAGUGGGGCAAGGGGGGGAUAAAGAGGGGGGUAACACUUUGGGAACAGGUGGUCCCAGGUCGUUUC | -0.215
UCCUGUGCUACACAUCGUAUGUACCGAAUCGGGCCCCCGGGGCCCCCGGGGCCCCCGGGGAAAGUAUUAUGUUACGCCGUUCGGAUCUGC | -0.805
CUGUGCUACACAUCGUAUGUACCGAAUCAAACCCCCCCAAAUUUUUUUAAAUUUUUUUAAAAAAGUAUUAUGUUACGCCGUUCGGAUCUG | -0.527
UAACUUUAGAGGAGGAUCUGAUGGAUAUGGCAGUGGACGUGGAUUUGGGGAUGGCUAUAAUGGGUAUGGAGGAGGAUCUGGAGGUGGCAA | -0.264
CACAGACAACACGCACCCACACAGACACAGAGGGAAAAGGUUGGGAUGGGGACAGGGUGCACAGCAGGGCGGGGUAGGACCCCAGCCCCU | -0.0801
UUAGGGUCAUGUGAAGGUGGUGCGCUACUUAGUCAAAGAAGUCAAUCAGUUUCCAUCAGAUUCUGAAUGUAUGAGAUACAUAGCAACCAU | -0.166
CUCAAGUCCUGUGCUACACAUCGUAUGUACCGAAUCGGUGGUUUUUUUGGAGGAAAGUAUUAUGUUACGCCGUUCGGAUCUGCACUUCCA | -0.112
